Measured values from different studies.
Lines come from different studies, so protocols differ. Numbers after ± are the reported error.
Technique: steady-state kinetics
B1: Saccharopine reductase C154S (Saccharomyces cerevisiae, UniProt P38999); chain MGKNVLLLGSGFVAQPVIDTLAANDDINVTVACRTLANAQALAKPSGSKAISLDVTDDSALDKVLADNDVVISLIPYTFHPNVVKSAIRTKTDVVTSSYISPALRELEPEIVKAGITVMNEIGLDPGIDHLYAVKTIDEVHRAGGKLKSFLSYSGGLPAPEDSDNPLGYKFSWSSRGVLLALRNSAKYWKDGKIETVSSEDLMATAKPYFIYPGYAFVCYPNRDSTLFKDLYHIPEAETVIRGTLRYQGFPEFVKALVDMGMLKDDANEIFSKPIAWNEALKQYLGAKSTSKEDLIASIDSKATWKDDEDRERILSGFAWLGLFSDAKITPRGNALDTLCARLEELMQYEDNERDMVVLQHKFGIEWADGTTETRTSTLVDYGKVGGYSSMAATVGYPVAIATKFVLDGTIKGPGLLAPYSPEINDPIMKELKDKYGIYLKEKTVA
B2: LYS12 D271N (Saccharomyces cerevisiae, UniProt P40495); chain SLTIGLIPGDGIGKEVIPAGKQVLENLNSKHGLSFNFIDLYAGFQTFQETGKALPDETVKVLKEQCQGALFGAVQSPTTKVEGYSSPIVALRREMGLFANVRPVKSVEGEKGKPIDMVIVRENTEDLYIKIEKTYIDKATGTRVADATKRISEIATRRIATIALDIALKRLQTRGQATLTVTHKSNVLSQSDGLFREICKEVYESNKDKYGQIKYNEQIVDSMVYRLFREPQCFDVIVAPNLYGDILSNGAAALVGSLGVVPSANVGPEIVIGEPCHGSAPDIAGKGIANPIATIRSTALMLEFLGHNEAAQDIYKAVDANLREGSIKTPDLGGKASTQQVVDDVLSRL
B3: sacB Y196F/Y247F (Priestia megaterium, UniProt D5DC07); chain KGNDSKDFNNSYGISHITRDNMVKIPQQQNSDQFKVPAFDESTIKNIASAKGKNASGNTIDLDVWDSWPLQNADGTVATYHGYQIVFALAGDPKDSNDTSVYLFYKKAGDKSIDSWKNAGRVFKDSDKFVPNDPHLKNQTQEWSGSGTLTKDGKVRLFYTDYSGKQFGKQTLTTAQVNMSQPNDNTLKVDGVEDYKSIFDGDGKIYQTVQQFIDEGGFDTGDNHTLRDPHYIEDNGHKYLVFEANTGTEDGYQGEDSLYNRAYYGGNNPFFQSEKKKLLEGSNKEKASLANGALGIIELNDDYTLKKVMKPLITSNTVTDEIERANIFKKDGKWYLFTDSRGSKMTIDGIGQDDVYMLGYVSNTLTGKYKPLNDTGLVLHMDLDPNDKTFTYSHFAVPQTKGDNVVITSYMTNRGFYEDNHSTFAPSFLVNIDGSKTSVVKDRVLEQGQLTVDED
B4: enzyme (Coprinopsis marcescibilis, UniProt A0A5C3KD26); chain FPQYGSLGGLEARQEEEATRGSTSTSGPRSRVPPPPPAPPRFTGAKLVDDRDHPWRPLRNGDIRGPCPGLNTLASHGYLPRDGVASPSDIIKAVQEGFNMETQTARFATYSAHILEGNLVTDLLSIGGKTSRTGPNPPPPATVAGISNHGSFEGDASLTRIDAFFGNHVAFNQPLFDQFVDFSNRFGNGFYNYTVGGELRFHRIQQSIETNPQFRIRGFRHFTAYAEAAFTANLFVDGRKTGADAHQLDMDSARSFFRDMRFPRGFFRPSSPTAGEGADIIFAAHPTQPGTNVGAVNNFVVDTSMGGLTDPCTFYVQFVNTTVRALYPNPTGVLRRNLIINLGFLYDSFAPPDCPQVFPYGQN
B5: POLK T408W/W214Y/W392H (Homo sapiens, UniProt Q9UBT6); chain MGLNDNKAGMEGLDKEKINKIIMEATKGSRFYGNELKKEKQVNQRIENMMQQKAQITSQQLRKAQLQVDRFAMELEQSRNLSNTIVHIDMDAFYAAVEMRDNPELKDKPIAVGSMSMLSTSNYHARRFGVRAAMPGFIAKRLCPQLIIVPPNFDKYRAVSKEVKEILADYDPNFMAMSLDEAYLNITKHLEERQNYPEDKRRYFIKMGSSVENDNPGKEVNKLSEHERSISPLLFEESPSDVQPPGDPFQVNFEEQNNPQILQNSVVFGTSAQEVVKEIRFRIEQKTTLTASAGIAPNTMLAKVCSDKNKPNGQYQILPNRQAVMDFIKDLPIRKVSGIGKVTEKMLKALGIITCTELYQQRALLSLLFSETSHHYFLHISLGLGSTHLWRDGERKSMSVERTFSEINKAEEQYSLCQELCSELAQDLQKERLKGRTVTIKLKNVNFEVKTRASTVSSVVSTAEEIFAIAKELLKTEIDADFPHPLRLRLMGVRISSFPNEEDRKHQQ
B6: dnrK (Streptomyces peucetius, UniProt Q06528); chain MTAEPTVAARPQQIDALRTLIRLGSLHTPMVVRTAATLRLVDHILAGARTVKALAARTDTRPEALLRLIRHLVAIGLLEEDAPGEFVPTEVGELLADDHPAAQRAWHDLTQAVARADISFTRLPDAIRTGRPTYESIYGKPFYEDLAGRPDLRASFDSLLACDQDVAFDAPAAAYDWTNVRHVLDVGGGKGGFAAAIARRAPHVSATVLEMAGTVDTARSYLKDEGLSDRVDVVEGDFFEPLPRKADAIILSFVLLNWPDHDAVRILTRCAEALEPGGRILIHERDDLHENSFNEQFTELDLRMLVFLGGALRTREKWDGLAASAGLVVEEVRQLPSPTIPYDLSLLVLAPAATGA
B7: enzyme (Triticum aestivum, UniProt A0A6J4BJH4); chain MPSTESAAGVAWDRRRELQAFDDTKAGVKGLVDAGVTALPPIFRHSPESLESITSSNHVAGAIPTVDLAAPRREDAVALVRHAARTVGFFQVVNHGVPAELMAGMLEGVRRFNEGPAEAKQAIYSRDQARKVRFASNFDLFSSAAANWRDTLFFHLAPDPAPSEELPEAVRDVVTEYGHAVTKVGLSVLELLSESLGLSSDHLRDMDCAENLNAVCQYYPPCPEPYLTWGTKRHTDPGFLTVLLQDGMGGLQVLVDGKTWVDVPPVPGAFIINIGDLLQLVSNDQFRSVEHRVLANKSKDTARVSVASFFNTNIERSTRLYGPITDGRNPPIYRSVTAREFIATFNRIGLDGRSLDQYRLDRDTPTPAVEGCE
B8: sacB S173A/S422A (Priestia megaterium, UniProt D5DC07); chain KGNDSKDFNNSYGISHITRDNMVKIPQQQNSDQFKVPAFDESTIKNIASAKGKNASGNTIDLDVWDSWPLQNADGTVATYHGYQIVFALAGDPKDSNDTSVYLFYKKAGDKSIDSWKNAGRVFKDSDKFVPNDPHLKNQTQEWAGSGTLTKDGKVRLFYTDYSGKQYGKQTLTTAQVNMSQPNDNTLKVDGVEDYKSIFDGDGKIYQTVQQFIDEGGYDTGDNHTLRDPHYIEDNGHKYLVFEANTGTEDGYQGEDSLYNRAYYGGNNPFFQSEKKKLLEGSNKEKASLANGALGIIELNDDYTLKKVMKPLITSNTVTDEIERANIFKKDGKWYLFTDSRGSKMTIDGIGQDDVYMLGYVSNTLTGKYKPLNDTGLVLHMDLDPNDKTFTYAHFAVPQTKGDNVVITSYMTNRGFYEDNHSTFAPSFLVNIDGSKTSVVKDRVLEQGQLTVDED
B9: ycjS (Escherichia coli, UniProt P77503); chain MKSAMTSSPLRVAIIGAGQVADKVHASYYCTRNDLELVAVCDSRLSQAQALAEKYGNASVWDDPQAMLLAVKPDVVSVCSPNRFHYEHTLMALEAGCHVMCEKPPAMTPEQAREMCDTARKLGKVLAYDFHHRFALDTQQLREQVTNGVLGEIYVTTARALRRCGVPGWGVFTNKELQGGGPLIDIGIHMLDAAMYVLGFPAVKSVNAHSFQKIGTQKSCGQFGEWDPATYSVEDSLFGTIEFHNGGILWLETSFALNIREQSIMNVSFCGDKAGATLFPAHIYTDNNGELMTLMQREIADDNRHLRSMEAFINHVQGKPVMIADAEQGYIIQQLVAALYQSAETGTRVEL
B10: PduO (Limosilactobacillus reuteri, UniProt Q50EJ2); chain MKIYTKNGDKGQTRIIGKQILYKNDPRVAAYGEVDELNSWVGYTKSLINSHTQVLSNELEEIQQLLFDCGHDLATPADDERHSFKFKQEQPTVWLEEKIDNYTQVVPAVKKFILPGGTQLASALHVARTITRRAERQIVQLMREEQINQDVLIFINRLSDYFFAAARYANYLEQQPDMLYRNSKDVFR
Sequence of UniProt P07914 (whole entry, looked up): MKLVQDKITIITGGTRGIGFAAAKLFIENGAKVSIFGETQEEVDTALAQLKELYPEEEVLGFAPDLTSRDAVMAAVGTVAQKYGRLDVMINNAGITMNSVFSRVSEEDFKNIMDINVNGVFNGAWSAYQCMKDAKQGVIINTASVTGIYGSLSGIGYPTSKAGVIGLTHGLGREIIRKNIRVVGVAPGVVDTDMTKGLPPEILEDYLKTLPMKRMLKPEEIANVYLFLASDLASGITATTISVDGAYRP
Sequence of UniProt Q88FY1 (whole entry, looked up): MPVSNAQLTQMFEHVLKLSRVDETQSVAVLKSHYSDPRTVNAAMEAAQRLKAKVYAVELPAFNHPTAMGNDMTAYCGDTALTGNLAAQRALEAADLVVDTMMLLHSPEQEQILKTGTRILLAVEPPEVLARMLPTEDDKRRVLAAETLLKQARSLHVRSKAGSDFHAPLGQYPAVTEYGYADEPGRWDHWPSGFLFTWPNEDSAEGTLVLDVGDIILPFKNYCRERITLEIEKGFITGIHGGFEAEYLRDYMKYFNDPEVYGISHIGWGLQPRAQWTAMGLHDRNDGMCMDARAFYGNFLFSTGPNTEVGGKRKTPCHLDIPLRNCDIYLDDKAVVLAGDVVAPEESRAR
Sequence of UniProt Q99042 (whole entry, looked up): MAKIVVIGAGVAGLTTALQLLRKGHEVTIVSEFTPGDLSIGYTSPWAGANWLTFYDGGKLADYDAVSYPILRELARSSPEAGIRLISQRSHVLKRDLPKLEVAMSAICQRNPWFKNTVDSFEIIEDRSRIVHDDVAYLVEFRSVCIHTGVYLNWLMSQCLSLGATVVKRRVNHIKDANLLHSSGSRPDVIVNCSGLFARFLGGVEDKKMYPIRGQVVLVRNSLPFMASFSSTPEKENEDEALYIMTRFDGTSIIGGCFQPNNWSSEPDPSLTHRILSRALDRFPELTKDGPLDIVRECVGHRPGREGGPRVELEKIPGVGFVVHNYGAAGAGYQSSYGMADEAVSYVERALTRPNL
Sequence of UniProt Q8IVS2 (whole entry, looked up): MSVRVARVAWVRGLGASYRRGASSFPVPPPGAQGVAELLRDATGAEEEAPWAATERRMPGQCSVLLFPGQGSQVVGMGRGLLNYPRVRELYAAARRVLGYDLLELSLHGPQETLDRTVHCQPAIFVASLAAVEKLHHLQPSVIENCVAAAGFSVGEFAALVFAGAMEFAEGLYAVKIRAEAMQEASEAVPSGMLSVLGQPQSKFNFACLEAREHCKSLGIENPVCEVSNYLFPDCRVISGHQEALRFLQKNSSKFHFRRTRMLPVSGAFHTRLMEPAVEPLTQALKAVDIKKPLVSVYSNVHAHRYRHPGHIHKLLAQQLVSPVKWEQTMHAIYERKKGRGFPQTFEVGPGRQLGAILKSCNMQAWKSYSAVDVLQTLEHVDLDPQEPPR
Sequence of UniProt Q8KHZ8 (whole entry, looked up): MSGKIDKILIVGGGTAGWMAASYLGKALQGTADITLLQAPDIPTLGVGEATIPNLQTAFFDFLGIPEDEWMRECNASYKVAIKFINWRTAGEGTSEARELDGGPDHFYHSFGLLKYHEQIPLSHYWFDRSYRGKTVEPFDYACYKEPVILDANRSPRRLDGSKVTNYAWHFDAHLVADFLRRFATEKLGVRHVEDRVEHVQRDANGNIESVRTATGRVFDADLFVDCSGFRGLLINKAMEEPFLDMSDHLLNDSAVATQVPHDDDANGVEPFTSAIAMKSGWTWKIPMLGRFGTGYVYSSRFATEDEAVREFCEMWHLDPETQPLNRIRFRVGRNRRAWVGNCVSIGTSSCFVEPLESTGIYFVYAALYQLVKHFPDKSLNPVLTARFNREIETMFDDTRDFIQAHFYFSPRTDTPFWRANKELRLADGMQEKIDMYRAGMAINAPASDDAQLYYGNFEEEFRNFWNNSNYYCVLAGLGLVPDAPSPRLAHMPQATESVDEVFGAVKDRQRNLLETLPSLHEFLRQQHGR

| Substance | substrate | pH | temperature | setting | with | kcat |
| --- | --- | --- | --- | --- | --- | --- |
| DAO1 (Trigonopsis variabilis, UniProt Q99042) | CN(C)c1ccc2nc3ccc(N(C)C)c([N+](=O)[O-])c3[s+]c2c1 | pH 8 | 22 °C | apparent | – | 0.19 ± 0.008 s⁻¹ |
| B1 (Saccharopine reductase C154S) | NC(=O)c1ccc[n+]([C@@H]2O[C@H](COP(=O)(O)OP(=O)(O)OC[C@H]3O[C@@H](n4cnc5c(N)ncnc54)[C@H](OP(=O)(O)O)[C@@H]3O)[C@@H](O)[C@H]2O)c1 | pH 9 | 25 °C | – | saccharopine | 0.12 ± 0.03 s⁻¹ |
| B2 (LYS12 D271N) | NC(=O)c1ccc[n+]([C@@H]2O[C@H](COP(=O)([O-])OP(=O)(O)OC[C@H]3O[C@@H](n4cnc5c(N)ncnc54)[C@H](O)[C@@H]3O)[C@@H](O)[C@H]2O)c1 | pH 7.5 | 25 °C | potassium acetate 100 mM | Mg-cosubstrate varied; Mg2+ 10 mM | 0.026 ± 0.002 s⁻¹ |
| B3 (sacB Y196F/Y247F) | OC[C@H]1O[C@@](CO)(O[C@H]2O[C@H](CO)[C@@H](O)[C@H](O)[C@H]2O)[C@@H](O)[C@@H]1O | pH 6.9 | – | – | – | 309 ± 6.7 s⁻¹ |
| protein (Actinidia deliciosa, UniProt Q32W37) | CC(C)=CCC/C(C)=C/CC/C(C)=C/CO[P@@](=O)(O)OP(=O)(O)O | pH 7.5 | – | – | FPP 1-100 µM | 0.017 ± 0.001 s⁻¹ |
| B4 (enzyme) | O=[N+]([O-])c1ccc2c(c1)OCO2 | – | – | – | – | 146 ± 1 s⁻¹ |
| nicX (Pseudomonas putida, UniProt Q88FY1) | Oc1ccc(O)nc1 | pH 7.5 | 20 °C | – | O2; Fe2+ 0.025 mM | 1.28 ± 0.03 s⁻¹ |
| protein (UniProt M4ZR24) | O=c1ccn([C@H]2C[C@H](O)[C@@H](CO)O2)c(=O)[nH]1 | – | – | phosphorolysis, single substrate | phosphate | 0.467 ± 0.0333 s⁻¹ |
| B5 (POLK T408W/W214Y/W392H) | Nc1ccn([C@H]2C[C@H](O)[C@@H](COP(=O)(O)OP(=O)(O)OP(=O)(O)O)O2)c(=O)n1 | pH 7.5 | 23 °C | MgCl2 5 mM | G template | 0.017 ± 0.001 s⁻¹ |
| B6 (dnrK) | CC(=O)[C@]1(O)Cc2c(O)c3c(c(O)c2[C@@H](O[C@H]2C[C@H](N)[C@H](O)[C@H](C)O2)C1)C(=O)c1c(O)cccc1C3=O | pH 8 | 37 °C | – | AdoMet | 0.0108 ± 0.0005 s⁻¹ |
| B7 (enzyme) | O=C1[C@@H](O[C@@H]2O[C@H](CO)[C@@H](O)[C@H](O)[C@H]2O)Oc2ccccc2N1O | pH 7.2 | 30 °C | – | – | 0.524 s⁻¹ |
| CPR (Sorghum bicolor, UniProt C5YJG8) | NC(=O)C1=CN([C@@H]2O[C@H](COP(=O)(O)OP(=O)(O)OC[C@H]3O[C@@H](n4cnc5c(N)ncnc54)[C@H](OP(=O)(O)O)[C@@H]3O)[C@@H](O)[C@H]2O)C=CC1 | pH 7.4 | 25 °C | – | – | 15.8 ± 0.492 s⁻¹ |
| B8 (sacB S173A/S422A) | OC[C@H]1O[C@@](CO)(O[C@H]2O[C@H](CO)[C@@H](O)[C@H](O)[C@H]2O)[C@@H](O)[C@@H]1O | pH 6.6 | – | – | – | 2.8 ± 0.1 s⁻¹ |
| rebH (Lentzea aerocolonigenes, UniProt Q8KHZ8) | c1ccc2c3c([nH]c2c1)CNCC3 | – | – | – | glucose dehydrogenase regeneration | 0.000217 s⁻¹ |
| MCAT (Homo sapiens, UniProt Q8IVS2) | CC(C)(COP(=O)(O)OP(=O)(O)OC[C@H]1O[C@@H](n2cnc3c(N)ncnc32)[C@H](O)[C@@H]1OP(=O)(O)O)[C@@H](O)C(=O)NCCC(=O)NCCSC(=O)CC(=O)O | pH 6.8 | 20 °C | labelled substrate | holo-ACP 20 µM | 1.08 ± 0.102 s⁻¹ |
| B9 (ycjS) | CO[C@H]1O[C@H](CO)[C@@H](O)[C@H](O)[C@H]1O | pH 8 | 30 °C | – | NAD+ 2.0 mM | 0.58 ± 0.01 s⁻¹ |
| BaiA1 (Clostridium scindens, UniProt P07914) | C[C@H](CCC(=O)SCCNC(=O)CCNC(=O)[C@H](O)C(C)(C)COP(=O)(O)OP(=O)(O)OC[C@H]1O[C@@H](n2cnc3c(N)ncnc32)[C@H](O)[C@@H]1OP(=O)(O)O)[C@H]1CC[C@H]2[C@@H]3CC[C@@H]4C[C@H](O)CC[C@]4(C)[C@H]3C[C@H](O)[C@]12C | pH 8.7 | 37 °C | – | NAD+ | 0.867 s⁻¹ |
| B10 (PduO) | Nc1ncnc2c1ncn2[C@@H]1O[C@H](COP(=O)(O)OP(=O)(O)OP(=O)(O)O)[C@@H](O)[C@H]1O | pH 8 | 37 °C | anoxic | cob(I)alamin | 0.026 ± 0.001 s⁻¹ |

Excerpt of the above:
| Substance | substrate | pH | temperature | setting | with | kcat |
| --- | --- | --- | --- | --- | --- | --- |
| B8 (sacB S173A/S422A) | OC[C@H]1O[C@@](CO)(O[C@H]2O[C@H](CO)[C@@H](O)[C@H](O)[C@H]2O)[C@@H](O)[C@@H]1O | pH 6.6 | – | – | – | 2.8 ± 0.1 s⁻¹ |
| B4 (enzyme) | O=[N+]([O-])c1ccc2c(c1)OCO2 | – | – | – | – | 146 ± 1 s⁻¹ |
